Measurements pooled from the literature.
“And” joins repeats or separate records; there may be more than shown.
Cell line: A2780

Compound | assay | setting | how to read | endpoint | result
COc1cc2cc(C=C3C(=O)Nc4ccccc43)c(Cl)nc2cc1OC | cell growth or viability, MTT | 72 h |  | IC50 | > 100 µM
c1ccc(P(=NCc2ccccn2)(c2ccccc2)c2ccccc2)cc1 | cell growth or viability, MTT | 74 h |  | IC50 | > 100 µM
CCc1cc(Nc2nccc(-c3c(-c4ccc(OC)c(C(=O)Nc5c(F)cccc5F)c4)nc4ccccn34)n2)c(OC)cc1N1CCC(N2CCN(S(C)(=O)=O)CC2)CC1 | cell proliferation, resazurin | 72 h |  | EC50 | > 25 µM
CC1(C)CC(C)(C)c2cc(N/C(S)=N/c3ccc([N+](=O)[O-])cc3)ccc2S1 | measured: cyclin D1 | 24 h | decrease | EC50 | 4 to 5 µM
COc1cc2c(cc1O)CC[C@@H]1[C@@H]2CC[C@]2(C)[C@@H](O)CC[C@@H]12 | cell growth or viability, MTT | 48 h |  | IC50 | 0.59 µM
CNC(=O)c1cc(Oc2ccc(NC(=O)Nc3ccc(Cl)c(C(F)(F)F)c3)cc2)ccn1 | AKT Ser473 phosphorylation, inhibitor, measured: phospho-AKT Ser473 | added: PDGF |  | IC50 | 1.33 µM
CC(C)=CCC1=C(O)C(=O)c2ccccc2C1=O | cell growth or viability, MTT | 48 h |  | IC50 | > 50 µM
CCN(CC)CCNC(=O)c1c(C)[nH]c(/C=C2\C(=O)Nc3ccc(F)cc32)c1C | AKT Ser473 phosphorylation, inhibitor, measured: phospho-AKT Ser473 | added: PDGF |  | IC50 | 0.0169 µM
O=C1Nc2ccccc2C1=Cc1cc2ccc3ccccc3c2nc1Cl | cell growth or viability, MTT | 72 h |  | IC50 | > 100 µM
C=CCN(/C=C1/C(=O)O[C@H](COC)[C@@]2(C)C1=C(O)C(=O)C1=C2[C@H](OC(C)=O)C[C@]2(C)C(=O)CC[C@@H]12)CC=C | cell proliferation, resazurin | 72 h |  | EC50 | > 25 µM
O=C1Nc2ccccc2C1=Cc1cc2ccc(Cl)cc2nc1Cl | cell growth or viability, MTT | 72 h |  | IC50 | 22.7 µM
Fc1ccc(CNc2ncnc3ccc(F)cc23)cc1 | cell proliferation, resazurin | 72 h |  | EC50 | > 25 µM
COc1ccc2nc(Cl)c(C=C3C(=O)Nc4ccccc43)cc2c1 | cell growth or viability, MTT | 72 h |  | IC50 | > 100 µM
CCOc1ccc2cc(C3CC(c4ccc(Br)cc4)=NN3C(=O)CCC(=O)O)c(Cl)nc2c1 (stereo not shown) | colony formation | 48 h |  | IC50 | > 50 µM and 55 µM
O=C1Nc2ccccc2C1=Cc1cc2cc(Cl)ccc2nc1Cl | cell growth or viability, MTT | 72 h |  | IC50 | 7.7 µM
CC[PH](CC)(CC)[Au][S][C@@H]1O[C@H](COC(C)=O)[C@@H](OC(C)=O)[C@H](OC(C)=O)[C@H]1OC(C)=O | cell growth or viability, MTT |  |  | IC50 | 1.1 µM

Some of these lines once more:
Compound | assay | setting | how to read | endpoint | result
CC1(C)CC(C)(C)c2cc(N/C(S)=N/c3ccc([N+](=O)[O-])cc3)ccc2S1 | measured: cyclin D1 | 24 h | decrease | EC50 | 4 to 5 µM
COc1ccc2nc(Cl)c(C=C3C(=O)Nc4ccccc43)cc2c1 | cell growth or viability, MTT | 72 h |  | IC50 | > 100 µM
